# Experimental data pooled from the literature.
# Numbered parts are unrelated; each lists some results of a single study. Positions count from the first letter of the parent shown.

# Study 1
# Target: UBE2C UBC core domain (UniProt O00762)
# Technique: yeast two-hybrid
# Sample: yeast
# Setting: mostly zero background
# Reference: not given
# Reading: higher = stronger interaction
# B1: RNF7 RING domain (UniProt Q9UBF6); chain AICRVQVMDACLRCQAENKQEDCVVVWGECNHSFHNCCMSLWVKQNNRCPLCQQDWVVQRIGK
# B2: TRIM34 RING domain (UniProt Q9BYJ4); chain ILLNVQEEVTCPICLELLTEPLSLDCGHSLCRACITVSNKEAVTSMGGKSSCPVCGISYSFEHLQA
# B3: ARIH1 RING domain (UniProt Q9Y4X5); chain NTRSSAQDMPCQICYLNYPNSYFTGLECGHKFCMQCWSEYLTTKIMEEGMGQTISCPAHGCDILVDDNTVM
# B4: RNF115 RING domain (UniProt Q9Y4L5); chain TQEQVDMGLECPVCKEDYTVEEEVRQLPCNHFFHSSCIVPWLELHDTCPVCRKSLNGEDSTR
# B5: RNF17 RING domain (UniProt Q9BXT8); chain SQPWGAAEIQCTRCGRRVSRSSGHHCELQCGHAFCELCLLMTEECTTIICPDCEVATAVNTRQR
# B6: CBLL1 RING domain (UniProt Q75N03); chain GEKDDTPVHFCDKCGLPIKIYGRMIPCKHVFCYDCAILHEKKGDKMCPGCSDPVQRIEQCT
# Target sequence (chain): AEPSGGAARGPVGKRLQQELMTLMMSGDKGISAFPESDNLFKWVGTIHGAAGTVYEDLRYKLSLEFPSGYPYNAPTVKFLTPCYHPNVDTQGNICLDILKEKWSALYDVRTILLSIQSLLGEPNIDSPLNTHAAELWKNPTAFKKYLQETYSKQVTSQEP
Molecule,lacZ reporter activity
SNNDLASLFECPVCFDYVLPPILQCQSGHLVCSNCRPKLTCCPTCRGPLGSIRNLA (SIAH1 RING domain (UniProt Q8IUQ4)),0
KITELNPHLMCALCGGYFIDATTIVECLHSFCKTCIVRYLETNKYCPMCDVQVHKTRPLL (PCGF2 RING domain (UniProt P35227)),0
B1 (RNF7 RING domain),0
B2 (TRIM34 RING domain),0
B3 (ARIH1 RING domain),0
B4 (RNF115 RING domain),0
B5 (RNF17 RING domain),0
MEEMEEELKCPVCGSFYREPIILPCSHNLCQACARNILVQTPESESPQSHRAAGSGVSDY (TRIM9 RING domain (UniProt Q9C026)),0
B6 (CBLL1 RING domain),0

# Study 2
# Target: Sal-like protein 4, full length isoform A (SALL4, Homo sapiens, UniProt Q9UJQ4, residues 1-1053)
# Chain of UniProt Q9UJQ4 (whole entry, looked up): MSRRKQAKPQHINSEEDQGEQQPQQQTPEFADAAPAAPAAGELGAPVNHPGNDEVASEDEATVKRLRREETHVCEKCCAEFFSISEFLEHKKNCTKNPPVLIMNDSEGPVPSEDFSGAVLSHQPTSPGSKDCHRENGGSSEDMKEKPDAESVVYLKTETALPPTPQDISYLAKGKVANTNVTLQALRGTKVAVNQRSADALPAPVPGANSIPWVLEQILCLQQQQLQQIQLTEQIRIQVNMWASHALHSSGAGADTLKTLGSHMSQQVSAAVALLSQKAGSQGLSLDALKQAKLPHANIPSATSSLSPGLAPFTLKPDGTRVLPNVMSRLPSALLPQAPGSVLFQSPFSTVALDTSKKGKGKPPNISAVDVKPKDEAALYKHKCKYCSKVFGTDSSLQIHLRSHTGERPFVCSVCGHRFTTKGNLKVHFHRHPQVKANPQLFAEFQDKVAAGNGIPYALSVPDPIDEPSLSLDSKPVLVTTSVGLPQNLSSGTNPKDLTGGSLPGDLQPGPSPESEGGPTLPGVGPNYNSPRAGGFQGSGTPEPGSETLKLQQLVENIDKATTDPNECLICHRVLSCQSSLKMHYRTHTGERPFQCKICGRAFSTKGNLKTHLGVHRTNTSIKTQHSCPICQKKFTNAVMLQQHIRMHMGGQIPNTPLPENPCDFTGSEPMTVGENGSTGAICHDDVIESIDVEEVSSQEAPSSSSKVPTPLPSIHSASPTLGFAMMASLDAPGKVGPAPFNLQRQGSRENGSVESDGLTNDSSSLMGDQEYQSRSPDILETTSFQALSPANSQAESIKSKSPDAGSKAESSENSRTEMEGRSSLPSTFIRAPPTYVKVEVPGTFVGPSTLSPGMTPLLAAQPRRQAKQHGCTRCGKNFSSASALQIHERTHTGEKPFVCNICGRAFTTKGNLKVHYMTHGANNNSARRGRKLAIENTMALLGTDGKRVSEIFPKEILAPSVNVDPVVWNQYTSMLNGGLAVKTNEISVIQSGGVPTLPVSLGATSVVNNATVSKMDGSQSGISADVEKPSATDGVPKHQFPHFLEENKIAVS
# Technique: universal PBM
# Form: double-stranded DNA, one strand shown
# Sample: in vitro
# Tested at: 600 nM
# Setting: 8-mer, flanks averaged, mean of replicates
# Reading: higher = stronger binding
Strand,E-score
AAGTCGTA,0.159
CTTGAGGC,-0.259
AGCAAATC,0.125
GACGGCCA,-0.276
CCGCGAGC,-0.368
CTCCGGCC,-0.338
CATCAAAG,0.00799
CATTCTAC,0.0642
AACCGCGA,-0.0832
AGAATTGC,0.143
ATCAGCGC,-0.149
ATAGGTAC,0.161
CGGACCAC,-0.169
ACATTCAG,0.0452
ACGAGGCG,-0.195
AGTGGCTC,-0.184

# Study 3
# Target: Hepatocyte nuclear factor 3-alpha (Foxa1, Mus musculus, UniProt P35582, residues 1-468, full length assumed)
# Technique: EMSA with sequencing
# Form: double-stranded DNA, one strand shown
# Sample: in vitro
# Tested at: 10 and 20 nM
# Setting: whole designed probe, mean of two concentrations, ends assumed
# Reference: negative control set to 0
# Reading: higher = stronger binding
# Target sequence (chain): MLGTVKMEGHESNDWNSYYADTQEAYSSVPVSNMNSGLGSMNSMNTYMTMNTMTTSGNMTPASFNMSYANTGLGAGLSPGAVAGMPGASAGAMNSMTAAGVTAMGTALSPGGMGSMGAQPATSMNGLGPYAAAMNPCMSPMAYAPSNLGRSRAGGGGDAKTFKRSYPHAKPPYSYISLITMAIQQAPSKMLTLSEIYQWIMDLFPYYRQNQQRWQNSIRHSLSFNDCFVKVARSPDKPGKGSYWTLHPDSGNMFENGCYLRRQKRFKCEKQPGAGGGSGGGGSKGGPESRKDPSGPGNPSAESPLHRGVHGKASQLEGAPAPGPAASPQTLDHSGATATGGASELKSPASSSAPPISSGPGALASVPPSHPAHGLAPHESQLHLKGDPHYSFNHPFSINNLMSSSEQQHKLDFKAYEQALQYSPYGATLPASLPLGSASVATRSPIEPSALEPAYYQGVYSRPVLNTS
Strand,normalised bound fraction
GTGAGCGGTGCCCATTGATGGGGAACTCTGCGTCTAGCTCTGGAGCTCAGACTGGAACTGCTCAGCAGGAAACAGGTCTTGCTGCTAGTAAATTACCATGACTGTGTTTACATGGTGAGTCAACAGGCATAGGTCAGCTCTCCTTCTCTCCAAGCAGTCCCTTGAGCTGATGATTTATCTGGGTAAATCACATTCCAAATCAATTTTATTTTTGGCTGTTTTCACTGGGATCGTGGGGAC,0.157 ratio
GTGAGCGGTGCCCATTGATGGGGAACTCACGCAGAAATGCATTGGAATGTCAGGAAATTGTGTGTATTTGATGTATTTTACCTGTTGCCTAGAGAGCCCACACAGTGACGCAGGTGCCTGTTTACATTGGCTGATTGCCCGGACTTTGGAAATGCAATTATCCCCCACCACCCCCTCAGCCACTTTCTCCAGCGGACTAGGAGGGGCTGAGTGGTGCAGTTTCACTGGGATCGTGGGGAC,0.249 ratio
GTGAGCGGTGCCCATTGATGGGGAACATCTTCCCCCTCTTCCTTGCCCCACCAGCTCACCTTCCCGGGTATATTGGAGATAGGAAAATAAATAAAGCCGGCATTCGTTAACCCTCTTCTGGCGCAAACTGCCAGAGCAAACAGATGAATCATGGTCCTTTGGCGACGCCAGGCTCCGGGAGAGCAAAGCACCGTGTCAGGGCCATGATCCGGGGTGGCCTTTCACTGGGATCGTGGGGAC,0.368 ratio
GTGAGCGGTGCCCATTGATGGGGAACAAGTTATTACATAATGATAAAGGGGCTGATTCAGCAAGAAGATACAAGTATAAATATATATGCAATCAACACTGGAGCACCCAGATATATAAAGTAATTTTTATCAGAGCTAAAGAGAGAGAGACCTCAGTACAATAATAGCTAGAGACTTTAACACCCCACCTTCAGCAACGGACATATCTCCCAGACAGAATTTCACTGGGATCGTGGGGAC,0.545 ratio
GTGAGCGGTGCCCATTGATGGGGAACGATGTTTTTGTTGTTGTTAATCTGGAGCTAAGGATGGTTGCATTGTGTTTGCATTCTAGATAACAAAGCTGGCAGTCGCAGTGAAGGAGGGTCATGTTTGCACAGCAGTGATTCAGAGCTCTGCCAGGACAGCTGCCAGTGCAGTTTATCTCCCAGTCCGATCAGGCCTTGGCGCAGGGAGGGAAGGTGGCCCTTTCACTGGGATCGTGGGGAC,0.38 ratio

# Study 4
# Target: Interferon regulatory factor 7, full length, phosphomimetic (IRF7, Homo sapiens, UniProt Q92985, residues 1-503, S101K/S471D/S472D/S475D/S476D/S477D/S483D/S484D/S487D)
# Technique: protein-binding microarray
# Form: double-stranded DNA, one strand shown
# Sample: in vitro
# Tested at: 250 nM
# Setting: 60-bp whole probe
# Together with: salmon DNA 0.4 mg/ml
# Reference: random background probes
# Reading: higher = stronger binding
# All sequences stand within: GCCTAGCAC … GTCTTGATTCGCTTGACGCTGCTG
# Target sequence (chain): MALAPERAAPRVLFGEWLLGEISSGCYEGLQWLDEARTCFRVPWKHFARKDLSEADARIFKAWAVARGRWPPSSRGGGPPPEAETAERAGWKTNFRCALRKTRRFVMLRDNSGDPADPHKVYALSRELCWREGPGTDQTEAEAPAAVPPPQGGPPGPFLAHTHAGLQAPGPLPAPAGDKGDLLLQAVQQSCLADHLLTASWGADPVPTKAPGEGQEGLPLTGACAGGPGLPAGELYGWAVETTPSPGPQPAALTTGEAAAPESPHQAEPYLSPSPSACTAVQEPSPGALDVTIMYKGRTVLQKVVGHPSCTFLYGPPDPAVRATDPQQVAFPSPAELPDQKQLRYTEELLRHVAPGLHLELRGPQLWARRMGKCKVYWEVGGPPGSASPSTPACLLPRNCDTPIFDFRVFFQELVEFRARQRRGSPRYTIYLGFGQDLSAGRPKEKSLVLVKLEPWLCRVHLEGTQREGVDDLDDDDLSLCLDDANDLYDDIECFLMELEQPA
Strand,log fluorescence
GACGGACTGGGTTTCGGGAAGTGCTAG,0.694 z-score
TTAGGACTGCTTCTCTTTTAGTGCTAG,0.792 z-score
ACGAGTTTCTATTTTCTGAAGTGCTAG,8.27 z-score
TTAGGTTTCGGGTTTCTGTTAGTGCTA,11.1 z-score
GACGGTATCGTTTTCCTGACGTGCTAG,4.8 z-score
GACGCTTTCCTTCTCCTGACGTGCTAG,1.25 z-score
GACGGTTTCGGTTTTCGGGACGTGCTA,13.9 z-score
TTAGGTATCGACACTGGGATAGTGCTA,-0.272 z-score
GGTACAAACTTGTAATTATAGTGCTAG,-0.0258 z-score
GACGGTTACCTACTGCTGACGTGCTAG,-0.253 z-score
GACGGTTACGGGTATCGGGACGTGCTA,-0.153 z-score
GACGATTTCACTATCGAGACGTGCTAG,0.496 z-score
TTAGGTTTCGGCTTCGGTTAGTGCTAG,7.07 z-score
AGACCATCCTGTATGGATGTGTGCTAG,-0.156 z-score
GACGGTTTCGGTATCGGGAAGTGCTAG,10.6 z-score
TTAGATTTCAGCTTCGATTAGTGCTAG,0.394 z-score
GAGGGTATCGACTTTCGGGACGTGCTA,0.453 z-score
AAGACTTTCTTTCAAATGAAGTGCTAG,0.805 z-score
TCACCTCTACCTCCTGGGACTGTGCTA,-0.016 z-score
CTTTAACTCATTTTCGTTTTGTGCTAG,7.99 z-score
GACGGTAACGGGTATCGGGACGTGCTA,-0.48 z-score
GACGGTATCGACTATCGGGGCGTGCTA,-0.215 z-score
GACGATATCAGACTGTAGACGTGCTAG,-0.0195 z-score
TTAAGACTGCTACTGCTTTAGTGCTAG,-0.253 z-score
TTAGCTTTCCTTTTCCTTTAGTGCTAG,1.93 z-score

# Study 5
# Target: CCNA2, cyclin fold, Cln2 fusion (human)
# Technique: yeast growth competition, sequencing
# Sample: yeast
# Setting: strong parent motif
# Reference: not given
# Reading: higher = stronger binding
# Parent: CDC25A docking peptide (human); PPHRRRLLFACSP
Change,normalised enrichment score
PPHRRRLRFACSP [L8R],1.75
PPTRRRLLFACSP [H3T],5.24
PPHRRRLSFACSP [L8S],2.88
PPHRRRLLFACTP [S12T],1.92
GPHRRRLLFACSP [P1G],2.11
PPHRIRLLFACSP [R5I],1.77
PPYRRRLLFACSP [H3Y],3.47
PPSRRRLLFACSP [H3S],5.29
PEHRRRLLFACSP [P2E],1.85
PPHRRRLLDACSP [F9D],0.108
PPHRRRLTFACSP [L8T],3.22
PPHRRRLLFAQSP [C11Q],2.97
PPHRRRLLFSCSP [A10S],2.69
PPIRRRLLFACSP [H3I],4.46
PPHRRRLLFACSG [P13G],2.97
PPHRRRLLFACCP [S12C],1.99
PPHRRRLLFACSK [P13K],1.33
PPHRRRLLFAFSP [C11F],2.19
PPHRTRLLFACSP [R5T],0.851
PPHRRRLDFACSP [L8D],4.42
SPHRRRLLFACSP [P1S],2.21
PPHRRHLLFACSP [R6H],1.11
PPHRRRLLFAASP [C11A],3.09

# Study 6
# Target: Histone acetyltransferase KAT6A, both winged helices, GST fusion (KAT6A, Homo sapiens, UniProt Q92794, residues 1-181)
# Technique: protein binding microarray
# Form: double-stranded DNA, one strand shown
# Sample: in vitro
# Tested at: not given
# Setting: 8-mer, flanks averaged, mean of 2 arrays, mostly near background
# Reference: not given
# Reading: higher = stronger binding
# Target sequence (chain): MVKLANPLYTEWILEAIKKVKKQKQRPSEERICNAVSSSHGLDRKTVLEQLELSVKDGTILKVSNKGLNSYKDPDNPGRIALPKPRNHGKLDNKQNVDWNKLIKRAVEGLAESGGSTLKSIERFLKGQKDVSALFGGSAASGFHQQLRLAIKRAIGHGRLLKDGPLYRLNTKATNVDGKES
Strand,E-score
GGCCGAAC,0.118
CACATTAG,-0.172
CACATTCG,0.105
AGCAACGA,-0.12
GGACTACC,0.00743
CCCTAATC,-0.261
ACGAGGGG,-0.209
TGCACCAA,-0.297
TGCCATAA,-0.0855
GCATTCAC,0.0293
GCTACGAC,0.127
GGCAAAAC,-0.0184
CATATCCC,0.0561
CAACTCAC,-0.247
CCCCGGGG,0.286
CTGCAGCA,-0.132
CTAGCACA,-0.0808
ATGTCTTA,-0.0407
CGCGATGA,0.21
AAAAAGCG,0.195
CACGGTCA,0.136

# Some of these lines once more (study 6):
Strand,E-score
TGCCATAA,-0.0855
GCATTCAC,0.0293
GCTACGAC,0.127
GGCAAAAC,-0.0184
CATATCCC,0.0561
CAACTCAC,-0.247
CCCCGGGG,0.286
